Experimental data pooled from the literature.
Each line is one published result; not all experiments were run side by side.
Spike glycoprotein: Spike glycoprotein (Severe acute respiratory syndrome coronavirus 2, UniProt P0DTC2)
Spike glycoprotein RBD: Spike glycoprotein, RBD (Severe acute respiratory syndrome coronavirus 2, UniProt P0DTC2)

With CC[C@H](C)[C@H](NC(=O)[C@H](CCCCNC(=O)CN(CCNC(=O)CN(CCNC(=O)CN(CCNC(=O)CN(CCNC(=O)[C@H](CCCNC(=N)N)NC(C)=O)C(=O)Cn1ccc(N)nc1=O)C(=O)Cn1cnc2c(=O)[nH]c(N)nc21)C(=O)Cn1cnc2c(=O)[nH]c(N)nc21)C(=O)Cn1ccc(N)nc1=O)NC(=O)[C@H](CC(=O)O)NC(=O)[C@H](CO)NC(=O)[C@@H](NC(=O)[C@H](CCCNC(=N)N)NC(=O)[C@H](CCSC)NC(=O)[C@H](CO)NC(=O)[C@H](C)NC(=O)[C@H](CCC(=O)O)NC(=O)[C@H](C)NC(=O)[C@H](Cc1c[nH]cn1)NC(=O)CNC(=O)[C@H](CC(C)C)NC(=O)[C@H](CCC(=O)O)NC(=O)[C@H](CC(=O)O)NC(=O)[C@H](CC(C)C)NC(=O)[C@H](CC(C)C)NC(=O)[C@H](CCCNC(=N)N)NC(=O)[C@H](CCSC)NC(=O)[C@H](CCCC(=O)NCCN(CC(=O)NCCN(CC(=O)NCCN(CC(=O)NCCN(CC(=O)N[C@@H](CCCNC(=N)N)C(N)=O)C(=O)Cn1cnc2c(=O)[nH]c(N)nc21)C(=O)Cn1ccc(N)nc1=O)C(=O)Cn1ccc(N)nc1=O)C(=O)Cn1cnc2c(=O)[nH]c(N)nc21)NC(=O)[C@H](CCC(=O)O)NC(=O)[C@H](Cc1ccc(O)cc1)NC(=O)[C@@H](NC(=O)[C@H](CCCCN)NC(=O)[C@H](CCC(N)=O)NC(=O)[C@H](CC(C)C)NC(=O)[C@@H](NC(=O)[C@H](Cc1c[nH]c2ccccc12)NC(=O)[C@H](CCC(=O)O)NC(=O)[C@H](CCCCN)NC(=O)[C@H](CC(=O)O)NC(C)=O)[C@@H](C)CC)[C@@H](C)CC)C(C)C)C(=O)N[C@@H](Cc1ccc(O)cc1)C(=O)N[C@@H](CCC(=O)O)C(=O)N[C@@H](Cc1ccccc1)C(=O)N[C@@H](CCSC)C(=O)N[C@@H](CCCCN)C(=O)N[C@@H](CCCCN)C(N)=O the kon was 1.9e+06 M⁻¹ s⁻¹ (Spike glycoprotein; binding, SPR).
The inhibition of CC(C)C[C@@H]1NC(=O)[C@H](CC(=O)O)NC(=O)[C@H](CCC(=O)O)NC(=O)[C@@H](NC(=O)[C@H](CCC(=O)O)NC(=O)[C@@H](N)Cc2c[nH]cn2)Cc2cn(nn2)CCCC[C@@H](C(=O)N[C@@H](Cc2ccc(O)cc2)C(=O)N[C@@H](CCC(N)=O)C(N)=O)NC1=O is reported as 30% (Spike glycoprotein RBD; 30 µM).
For CCCCCCCCCCCCCCCc1cccc(O)c1C(=O)O, the koff was 0.00104 s⁻¹ (Spike glycoprotein; binding, biolayer interferometry).
For CC(C)C[C@H](NC(=O)CNC(=O)[C@H](Cc1ccccc1)NC(=O)[C@@H](NC(=O)[C@@H](N)[C@@H](C)O)C(C)C)C(=O)N[C@@H](CC(N)=O)C(=O)N[C@H](C(=O)N[C@@H](Cc1c[nH]c2ccccc12)C(=O)N[C@@H](CCCCN)C(=O)N[C@@H](CCCNC(=N)N)C(=O)N[C@@H](Cc1ccc(O)cc1)C(=O)N[C@@H](CO)C(=O)N[C@@H](CCCCN)C(=O)NCC(=O)N[C@@H](CCCCNc1ccc([N+](=O)[O-])cc1[N+](=O)[O-])C(N)=O)C(C)C, the koff was 0.00355 to 0.00371 s⁻¹ (Spike glycoprotein RBD; binding).
With CC(C)C[C@H](NC(=O)[C@H](CC(=O)O)NC(=O)[C@H](CCC(=O)O)NC(=O)[C@H](C)NC(=O)[C@H](CCC(=O)O)NC(=O)[C@H](Cc1c[nH]cn1)NC(=O)[C@H](CC(N)=O)NC(=O)[C@H](Cc1ccccc1)NC(=O)[C@H](Cc1ccccc1)NC(=O)[C@H](CC(=O)O)NC(=O)[C@H](CC(C)C)NC(=O)[C@H](Cc1ccccc1)NC(=O)[C@@H](N)[C@@H](C)O)C(=O)N[C@@H](Cc1ccccc1)C(=O)N[C@@H](Cc1ccc(O)cc1)C(=O)N[C@@H](CSCc1ccc(S(=O)(=O)F)cc1)C(=O)O the inhibition was ~100% (Spike glycoprotein, Omicron BA.2 RBD; ACE2 (Severe acute respiratory syndrome coronavirus 2, UniProt P0DTC2); RBD binding to human ACE2; 400 nM, SARS-CoV-2 Omicron BA.2 RBD).
O=C(C=Cc1ccc(O)c(O)c1)OC1CC(O)(C(=O)O)CC(OC(=O)C=Cc2ccc(O)c(O)c2)C1O (stereo not drawn) has a koff of 0.0164 s⁻¹ (Spike glycoprotein; binding).
With CCCCCCCCCCCCCCCC(=O)N[C@@H](CCC(=O)NCCOCCOCCC(=O)NCCOCCOCCC(=O)NCCCC[C@H](NC(=O)[C@H](CC(=O)O)NC(=O)[C@H](CC(C)C)NC(=O)[C@H](Cc1ccc(O)cc1)NC(=O)[C@H](CCCCN)NC(=O)[C@H](CO)NC(=O)[C@H](Cc1ccc(O)cc1)NC(=O)[C@H](CC(=O)O)NC(=O)[C@H](CO)NC(=O)[C@@H](NC(=O)[C@H](Cc1ccccc1)NC(=O)[C@@H](NC(=O)CNC(=O)[C@H](CCC(N)=O)NC(=O)[C@@H](CO)NC(=O)[C@@H](N)Cc1c[nH]cn1)[C@@H](C)O)[C@@H](C)O)C(=O)N[C@@H](CCCNC(=N)N)C(=O)N[C@@H](CCCNC(=N)N)C(=O)N[C@@H](C)C(=O)N[C@@H](CCC(N)=O)C(=O)N[C@@H](CC(=O)O)C(=O)N[C@@H](Cc1ccccc1)C(=O)N[C@H](C(=O)N[C@@H](CCC(N)=O)C(=O)N[C@@H](Cc1c[nH]c2ccccc12)C(=O)N[C@@H](CC(C)C)C(=O)N[C@@H](CC(C)C)C(=O)N[C@@H](CC(N)=O)C(=O)N[C@H](C(=O)NCC(=O)NCC(=O)N1CCC[C@H]1C(=O)N[C@@H](CO)C(=O)N[C@@H](CO)C(=O)NCC(=O)N[C@@H](C)C(=O)N1CCC[C@H]1C(=O)N1CCC[C@H]1C(=O)N1CCC[C@H]1C(=O)N[C@@H](CO)C(N)=O)[C@@H](C)O)C(C)C)C(=O)O the Cmax was 25.4 ng/mL (male rhesus monkeys; 20 µg/kg, day 28).
Under inhibition, C=Cc1c(C)c2cc3nc(cc4[nH]c(cc5nc(cc1[nH]2)C(C)=C5CCC(=O)O)c(CCC(=O)OC)c4C)C1(C)C3=CC=C(C(=O)OC)C1C(=O)OC (stereo not drawn) is recorded as “inhibited” (Spike glycoprotein, with TMPRSS2 (Severe acute respiratory syndrome coronavirus 2, UniProt P0DTC2); NanoBiT reporter; concentration not given).
Cc1cc(C)n(-c2nc(-c3ccccc3)cc(=O)n2CC(=O)Nc2cccc([N+](=O)[O-])c2)n1 gave an inhibition of > 50% (Spike glycoprotein, HR1/HR2 domains (Severe acute respiratory syndrome coronavirus 2, UniProt P0DTC2); β-galactosidase reporter, inhibitor, yeast two-hybrid; yeast AH109; 1/2 MIC).
Under inhibition, O=c1c(OP(=O)(O)O)c(-c2ccc(OP(=O)(O)O)c(OP(=O)(O)O)c2)oc2cc(OP(=O)(O)O)cc(OP(=O)(O)O)c12 is recorded as “inhibited” (Spike glycoprotein; spike protein activity; SARS-CoV-2; concentration not given).
CNC(C)C1C(O)CC2(C)C3CCC4C(C)(C)C(NC)CCC45CC35CCC12C (stereo not drawn) has a koff of 0.03 s⁻¹ (Spike glycoprotein; binding, BLI).
For CC(C)C[C@H](NC(=O)CNC(=O)[C@H](Cc1ccccc1)NC(=O)[C@@H](NC(=O)[C@@H](NC(=O)c1cccc(S(=O)(=O)F)c1)[C@@H](C)O)C(C)C)C(=O)N[C@@H](CC(N)=O)C(=O)N[C@H](C(=O)N[C@@H](Cc1c[nH]c2ccccc12)C(=O)N[C@@H](CCCCN)C(=O)N[C@@H](CCCNC(=N)N)C(=O)N[C@@H](Cc1ccc(O)cc1)C(=O)N[C@@H](CO)C(=O)N[C@@H](CCCCN)C(=O)NCC(=O)N[C@@H](CCCCNc1ccc([N+](=O)[O-])cc1[N+](=O)[O-])C(N)=O)C(C)C, the kon was 10300 to 11600 M⁻¹ s⁻¹ (Spike glycoprotein RBD; binding).
